Measured values gathered from unrelated publications.
Each line is one published result; not all experiments were run side by side.
Chain of UniProt Q9BUB5 (whole entry, looked up): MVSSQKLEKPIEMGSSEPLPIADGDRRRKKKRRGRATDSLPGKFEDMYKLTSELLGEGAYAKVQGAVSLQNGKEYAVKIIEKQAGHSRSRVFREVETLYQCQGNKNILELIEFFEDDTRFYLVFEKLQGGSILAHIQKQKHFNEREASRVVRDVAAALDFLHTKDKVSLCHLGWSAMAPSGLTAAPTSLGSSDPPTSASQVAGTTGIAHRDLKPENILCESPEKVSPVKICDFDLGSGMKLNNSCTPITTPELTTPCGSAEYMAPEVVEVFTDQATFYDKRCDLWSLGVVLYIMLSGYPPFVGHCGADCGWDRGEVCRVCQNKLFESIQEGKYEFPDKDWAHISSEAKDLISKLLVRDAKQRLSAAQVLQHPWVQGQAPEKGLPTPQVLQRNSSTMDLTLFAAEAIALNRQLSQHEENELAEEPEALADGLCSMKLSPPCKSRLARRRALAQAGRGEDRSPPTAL
Chain of UniProt Q9BX84 (whole entry, looked up): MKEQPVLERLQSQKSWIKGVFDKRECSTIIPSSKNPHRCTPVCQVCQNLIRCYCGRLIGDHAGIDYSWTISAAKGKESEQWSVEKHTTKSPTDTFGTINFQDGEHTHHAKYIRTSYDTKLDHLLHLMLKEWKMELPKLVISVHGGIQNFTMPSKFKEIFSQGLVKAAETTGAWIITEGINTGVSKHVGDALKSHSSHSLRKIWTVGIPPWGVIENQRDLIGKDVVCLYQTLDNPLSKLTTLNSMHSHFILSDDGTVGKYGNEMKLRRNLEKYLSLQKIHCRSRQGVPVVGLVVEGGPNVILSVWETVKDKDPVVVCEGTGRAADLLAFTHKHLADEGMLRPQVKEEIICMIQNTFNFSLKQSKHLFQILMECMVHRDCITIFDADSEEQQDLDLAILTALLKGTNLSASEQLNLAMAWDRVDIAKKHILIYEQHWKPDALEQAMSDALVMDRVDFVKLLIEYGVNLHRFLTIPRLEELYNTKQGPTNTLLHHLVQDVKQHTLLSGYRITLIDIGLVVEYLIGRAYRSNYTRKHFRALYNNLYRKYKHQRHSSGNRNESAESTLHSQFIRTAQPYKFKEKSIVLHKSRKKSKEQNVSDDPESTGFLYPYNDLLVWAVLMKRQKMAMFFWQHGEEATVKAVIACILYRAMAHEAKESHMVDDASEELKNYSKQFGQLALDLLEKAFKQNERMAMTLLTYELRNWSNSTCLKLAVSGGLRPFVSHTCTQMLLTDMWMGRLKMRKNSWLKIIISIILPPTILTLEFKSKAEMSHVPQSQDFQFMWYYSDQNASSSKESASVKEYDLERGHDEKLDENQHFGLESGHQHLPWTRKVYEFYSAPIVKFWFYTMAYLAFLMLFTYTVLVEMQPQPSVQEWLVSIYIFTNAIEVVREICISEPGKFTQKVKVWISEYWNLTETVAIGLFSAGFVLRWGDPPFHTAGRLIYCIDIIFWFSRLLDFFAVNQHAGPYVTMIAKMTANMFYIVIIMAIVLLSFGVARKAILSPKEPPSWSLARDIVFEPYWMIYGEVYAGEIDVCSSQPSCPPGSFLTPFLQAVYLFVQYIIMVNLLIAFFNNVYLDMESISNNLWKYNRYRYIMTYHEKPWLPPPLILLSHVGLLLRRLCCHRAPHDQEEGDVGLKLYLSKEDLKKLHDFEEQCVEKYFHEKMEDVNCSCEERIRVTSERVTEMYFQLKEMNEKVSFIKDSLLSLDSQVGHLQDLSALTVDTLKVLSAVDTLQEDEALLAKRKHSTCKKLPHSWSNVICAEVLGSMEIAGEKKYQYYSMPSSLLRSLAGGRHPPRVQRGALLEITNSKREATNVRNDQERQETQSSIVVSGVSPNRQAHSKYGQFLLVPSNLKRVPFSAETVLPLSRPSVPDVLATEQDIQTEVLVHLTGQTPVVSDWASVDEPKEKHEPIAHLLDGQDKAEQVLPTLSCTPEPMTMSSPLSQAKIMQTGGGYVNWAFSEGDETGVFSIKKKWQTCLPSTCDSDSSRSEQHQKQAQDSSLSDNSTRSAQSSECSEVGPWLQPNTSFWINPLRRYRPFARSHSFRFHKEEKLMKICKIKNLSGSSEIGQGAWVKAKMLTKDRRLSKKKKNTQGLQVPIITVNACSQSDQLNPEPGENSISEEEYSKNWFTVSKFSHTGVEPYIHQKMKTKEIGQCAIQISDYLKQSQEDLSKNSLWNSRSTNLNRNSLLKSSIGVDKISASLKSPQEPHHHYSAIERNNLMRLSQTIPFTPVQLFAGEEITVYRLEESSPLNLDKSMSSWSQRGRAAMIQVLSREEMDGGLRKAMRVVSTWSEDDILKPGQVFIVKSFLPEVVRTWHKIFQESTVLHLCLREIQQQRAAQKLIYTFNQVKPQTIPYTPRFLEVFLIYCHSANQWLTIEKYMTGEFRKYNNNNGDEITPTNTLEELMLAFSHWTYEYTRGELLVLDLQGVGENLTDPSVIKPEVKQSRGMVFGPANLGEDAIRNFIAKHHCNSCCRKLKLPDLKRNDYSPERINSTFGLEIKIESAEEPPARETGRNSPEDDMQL
Chain of UniProt P11802 (whole entry, looked up): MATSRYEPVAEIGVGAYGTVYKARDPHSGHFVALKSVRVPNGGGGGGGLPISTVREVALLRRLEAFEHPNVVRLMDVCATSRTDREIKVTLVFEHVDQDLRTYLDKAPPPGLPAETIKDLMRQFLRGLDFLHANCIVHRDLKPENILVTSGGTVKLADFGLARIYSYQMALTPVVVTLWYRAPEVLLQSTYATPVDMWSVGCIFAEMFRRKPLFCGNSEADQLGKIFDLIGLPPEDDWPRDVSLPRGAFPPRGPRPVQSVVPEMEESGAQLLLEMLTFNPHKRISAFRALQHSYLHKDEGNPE
Chain of UniProt Q96SB4 (whole entry, looked up): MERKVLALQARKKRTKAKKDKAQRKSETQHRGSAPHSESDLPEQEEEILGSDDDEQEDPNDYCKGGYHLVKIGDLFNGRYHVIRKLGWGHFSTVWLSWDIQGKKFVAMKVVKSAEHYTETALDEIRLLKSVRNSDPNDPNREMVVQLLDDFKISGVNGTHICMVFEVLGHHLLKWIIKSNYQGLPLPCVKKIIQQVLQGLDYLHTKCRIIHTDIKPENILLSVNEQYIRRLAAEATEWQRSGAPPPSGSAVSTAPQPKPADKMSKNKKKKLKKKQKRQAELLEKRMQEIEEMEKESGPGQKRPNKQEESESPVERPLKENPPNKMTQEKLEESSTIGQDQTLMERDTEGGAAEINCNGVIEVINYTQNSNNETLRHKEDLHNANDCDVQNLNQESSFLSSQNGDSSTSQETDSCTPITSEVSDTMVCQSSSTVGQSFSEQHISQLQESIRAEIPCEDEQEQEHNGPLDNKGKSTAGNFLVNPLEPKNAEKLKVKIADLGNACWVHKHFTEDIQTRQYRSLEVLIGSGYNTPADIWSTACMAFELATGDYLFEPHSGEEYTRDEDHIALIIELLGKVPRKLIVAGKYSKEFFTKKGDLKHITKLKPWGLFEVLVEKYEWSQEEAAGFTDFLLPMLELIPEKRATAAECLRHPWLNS
Chain of UniProt Q9H2K8 (whole entry, looked up): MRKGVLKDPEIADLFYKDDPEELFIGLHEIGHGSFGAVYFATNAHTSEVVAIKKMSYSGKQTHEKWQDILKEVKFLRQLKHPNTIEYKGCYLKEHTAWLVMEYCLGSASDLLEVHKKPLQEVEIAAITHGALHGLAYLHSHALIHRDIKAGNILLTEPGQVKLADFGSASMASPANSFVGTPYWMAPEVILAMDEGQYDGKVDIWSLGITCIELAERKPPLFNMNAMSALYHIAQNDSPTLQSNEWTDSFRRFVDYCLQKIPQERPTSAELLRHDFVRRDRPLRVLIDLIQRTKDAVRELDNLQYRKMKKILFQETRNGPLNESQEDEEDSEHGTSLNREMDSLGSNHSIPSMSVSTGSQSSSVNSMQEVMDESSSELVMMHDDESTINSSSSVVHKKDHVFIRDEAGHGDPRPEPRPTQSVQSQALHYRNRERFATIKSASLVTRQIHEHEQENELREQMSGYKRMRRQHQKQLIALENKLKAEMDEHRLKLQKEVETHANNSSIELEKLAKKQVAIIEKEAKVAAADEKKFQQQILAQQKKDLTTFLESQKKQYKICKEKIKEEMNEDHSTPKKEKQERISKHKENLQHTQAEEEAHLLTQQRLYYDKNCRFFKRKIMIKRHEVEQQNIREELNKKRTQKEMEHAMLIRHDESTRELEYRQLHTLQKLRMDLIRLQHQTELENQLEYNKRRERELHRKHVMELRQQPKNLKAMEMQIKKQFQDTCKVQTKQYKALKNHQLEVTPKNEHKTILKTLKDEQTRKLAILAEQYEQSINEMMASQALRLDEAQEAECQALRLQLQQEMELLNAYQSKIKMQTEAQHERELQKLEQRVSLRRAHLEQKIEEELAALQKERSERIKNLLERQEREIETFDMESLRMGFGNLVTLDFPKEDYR
Chain of UniProt P10398 (whole entry, looked up): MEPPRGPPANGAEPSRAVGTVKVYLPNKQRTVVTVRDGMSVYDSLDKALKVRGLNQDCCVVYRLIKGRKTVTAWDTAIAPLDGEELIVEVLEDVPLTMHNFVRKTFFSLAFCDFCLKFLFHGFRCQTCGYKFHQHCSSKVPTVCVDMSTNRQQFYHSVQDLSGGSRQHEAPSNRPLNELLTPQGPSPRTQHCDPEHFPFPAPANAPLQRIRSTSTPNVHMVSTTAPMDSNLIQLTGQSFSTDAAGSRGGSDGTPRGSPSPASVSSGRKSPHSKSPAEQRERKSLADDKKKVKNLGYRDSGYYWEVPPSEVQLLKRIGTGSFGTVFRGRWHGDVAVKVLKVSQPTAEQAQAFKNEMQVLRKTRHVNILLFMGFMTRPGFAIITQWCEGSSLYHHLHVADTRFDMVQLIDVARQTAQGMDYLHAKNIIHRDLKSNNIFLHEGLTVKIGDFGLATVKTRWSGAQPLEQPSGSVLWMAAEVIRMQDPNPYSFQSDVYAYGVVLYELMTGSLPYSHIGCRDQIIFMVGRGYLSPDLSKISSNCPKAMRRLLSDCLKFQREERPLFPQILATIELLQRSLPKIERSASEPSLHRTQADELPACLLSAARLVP

| Structure (SMILES) | target | observed | method | concentration | remaining binding |
| --- | --- | --- | --- | --- | --- |
| CCCCC(=O)Nc1ccc(-c2ccc3ncn(CCC)c(=O)c3c2)cn1 | SRPK1 (Homo sapiens, UniProt Q96SB4) | binding | competition with immobilised ligand | 0.5 µM | 100% |
| C[C@]1(O)CCCN(c2nc(Nc3ccc(S(=O)(=O)N[C@H]4CC[C@H](CN5CCN(c6ccc(C7CCC(=O)NC7=O)cc6F)CC5)CC4)cc3F)ncc2C(F)(F)F)C1 (stereo partly shown) | TAOK3 (Homo sapiens, UniProt Q9H2K8) | binding | competition with immobilised ligand | 1 µM | 61% |
| FC(F)(F)Oc1cccc(-c2cnc3ccc(-c4ccncc4)nn23)c1 | EPHA1 (Homo sapiens, UniProt P21709) | cell-free assay | competition with immobilised ligand | 5 µM | 90% |
| c1cnn2ncc(-c3ccnc(N4CCC45COC5)n3)c2c1 | TRPM6 (Homo sapiens, UniProt Q9BX84) | binding |  | 1 µM | 80% |
| C=CC(=O)N1CCC(COCC(=O)N2CCN(c3nc(-c4cnc(N)nc4C(F)F)nc(N4CCOC[C@@H]4C)n3)CC2)CC1 | CDK4 (Homo sapiens, UniProt P11802) | binding | competition with immobilised ligand | 1 µM | 100% |
| C1=C/COCc2cc(ccc2OCCN2CCCC2)Nc2nccc(n2)-c2cccc(c2)COC/1 | PIK3CA (Homo sapiens, UniProt P42336, H1047Y) | binding |  | 0.1 µM | 53% |
| N[C@@H]1CCN(c2nccc(-c3cnn4ncccc34)n2)C1 | SIK1 (Homo sapiens, UniProt P57059) | binding |  | 1 µM | 100% |
| COc1ccc2oc(-c3ccc4nc(N)oc4c3)c/c(=N\c3ccccc3NC(=O)CCN)c2c1 | ARAF (Homo sapiens, UniProt P10398) | binding |  | 1 µM | 96% |
| CN(CCCC(F)(F)F)c1nccc(-c2cnn3ncccc23)n1 | CDK11A (Homo sapiens, UniProt Q9UQ88) | binding |  | 1 µM | 100% |
| Cc1cc([C@@H](C)Nc2ccccc2C(=O)O)c2nc(N3CCC(F)(F)CC3)c(C#N)c(=O)n2c1 | MKNK1 (Homo sapiens, UniProt Q9BUB5) | binding | competition with immobilised ligand | 1 µM | 61% |

Some of these lines once more:
| Structure (SMILES) | target | observed | method | concentration | remaining binding |
| --- | --- | --- | --- | --- | --- |
| C1=C/COCc2cc(ccc2OCCN2CCCC2)Nc2nccc(n2)-c2cccc(c2)COC/1 | PIK3CA (Homo sapiens, UniProt P42336, H1047Y) | binding |  | 0.1 µM | 53% |
